Measured values of several laboratories.
Lines come from different studies, so protocols differ. ± gives the spread as reported.
Organism: Escherichia coli

CC[C@H](C)[C@H](N)C(=O)N[C@@H](CC(N)=O)C(=O)N[C@@H](CC(C)C)C(=O)N[C@@H](CCCCN)C(=O)N[C@@H](C)C(=O)N[C@H](C(=O)N[C@@H](C)C(=O)N[C@@H](C)C(=O)N[C@@H](CC(C)C)C(=O)N[C@@H](C)C(=O)N[C@@H](CCCCN)C(=O)N[C@@H](CCCCN)C(=O)N[C@@H](CC(C)C)C(=O)N[C@@H](CC(C)C)C(=O)O)[C@@H](C)CC — MIC (broth microdilution; K12; 37 °C): 25 µM
CC(C)C[C@@H](N)C(=O)N[C@@H](C(=O)N[C@H](Cc1c[nH]c2ccccc12)C(=O)N[C@H](CCCCN)C(=O)N[C@H](CC(C)C)C(=O)N[C@H](Cc1c[nH]c2ccccc12)C(=O)N[C@H](Cc1c[nH]c2ccccc12)C(=O)N[C@H](CCCNC(=N)N)C(=O)N[C@H](CC(C)C)C(=O)N[C@H](CCCNC(=N)N)C(=O)N[C@H](Cc1c[nH]c2ccccc12)C(=O)N[C@H](CC(C)C)C(=O)N[C@H](CCCCN)C(N)=O)C(C)C — MIC (ATCC 25922; 1 h, 37 °C, dividing cells in LB): 50 µg/mL
CC(C)C[C@H](N)C(=O)N[C@@H](CS)C(=O)N1CCC[C@H]1C(=O)N[C@@H](Cc1c[nH]cn1)C(=O)N[C@@H](CCCNC(=N)N)C(=O)N[C@@H](CS)C(=O)O — MIC (broth microdilution; MTCC 443; 37 °C): 25 µg/mL
CC(C)[C@H](NC(=O)[C@H](CCCCN)NC(=O)CNC(=O)CNC(=O)[C@H](CCC(N)=O)NC(=O)[C@H](CCCCN)NC(=O)CNC(=O)[C@H](CCCNC(=N)N)NC(=O)CNC(=O)[C@@H](N)CCCCN)C(=O)N[C@@H](CCCNC(=N)N)C(=O)N[C@@H](C)C(=O)N[C@@H](CCCCN)C(=O)N[C@@H](C)C(=O)N[C@@H](CCCCN)C(=O)N[C@H](C(=O)N[C@@H](CCCNC(=N)N)C(=O)N[C@@H](CO)C(=O)N[C@@H](CO)C(=O)O)[C@@H](C)O — MIC (broth microdilution; K12; 37 °C): > 84 µM
vasoactive intestinal peptide — MIC (ATCC 25922): 6.9 µM
CSc1nc(Cl)cc(Sc2nnc(-c3cc(C(F)(F)F)cc(C(F)(F)F)c3)[nH]2)n1 — MIC (microbial growth; NR698; 16 h): 5.2 µM
CC[C@H](C)[C@H](NC(=O)[C@@H]1CCCN1C(=O)[C@H](CCCNC(=N)N)NC(=O)[C@@H]1CCCN1C(=O)[C@@H]1CCCN1C(=O)[C@@H](NC(=O)[C@@H]1CCCN1C(=O)[C@H](CCCNC(=N)N)NC(=O)[C@@H]1CCCN1C(=O)[C@H](CC(C)C)NC(=O)[C@H](Cc1ccc(O)cc1)NC(=O)[C@H](CO)NC(=O)CNC(=O)[C@H](CCCCN)NC(=O)[C@H](CC(=O)O)NC(=O)[C@@H](N)C(C)C)[C@@H](C)O)C(=O)N[C@@H](Cc1ccc(O)cc1)C(=O)N[C@@H](CC(N)=O)C(=O)N[C@@H](CCCNC(=N)N)C(=O)N[C@@H](CC(N)=O)C(=O)O — MIC (broth microdilution; BW25113, 20% M9 medium): > 0.6 µM
CC(C)C[C@H](NC(=O)[C@H](Cc1ccccc1)NC(=O)[C@H](CCCCN)NC(=O)[C@@H](N)CCCCN)C(=O)NCC(=O)N[C@@H](CCCCN)C(=O)N[C@@H](Cc1c[nH]c2ccccc12)C(=O)N[C@@H](CCCCN)C(=O)N[C@@H](CC(C)C)C(=O)N[C@@H](CCCNC(=N)N)C(=O)N[C@@H](Cc1ccccc1)C(=O)NCC(=O)N[C@@H](Cc1c[nH]c2ccccc12)C(N)=O — MIC (broth microdilution; ATCC 25922, LB medium; 16 to 20 h, 37 °C): 12.5 µg/mL
CC(C)C[C@H](NC(=O)[C@H](C)NC(=O)CNC(=O)[C@H](CC(C)C)NC(=O)[C@H](CC(C)C)NC(=O)[C@H](CCCCN)NC(=O)[C@H](CCCCN)NC(=O)[C@H](CC(C)C)NC(=O)[C@H](CC(C)C)NC(=O)[C@H](CCCCN)NC(=O)[C@H](CC(C)C)NC(=O)[C@H](CC(C)C)NC(=O)[C@@H](N)CCCCN)C(=O)NCC(N)=O — MIC (ATCC 25922, CAMHB; 18 h, 37 °C): 1 µM
CC[C@H](C)[C@H](NC(=O)[C@H](CCCCN)NC(=O)[C@H](CC(C)C)NC(=O)[C@H](Cc1ccccc1)NC(=O)[C@H](CCCNC(=N)N)NC(=O)[C@H](CC(C)C)NC(=O)[C@H](Cc1ccccc1)NC(=O)[C@H](CCCNC(=N)N)NC(=O)[C@H](CO)NC(=O)[C@H](CC(C)C)NC(=O)[C@@H](N)CO)C(=O)N[C@H](C(=O)N[C@@H](Cc1ccc(O)cc1)C(=O)N[C@@H](CCCNC(=N)N)C(=O)N[C@@H](CCCNC(=N)N)C(=O)N[C@@H](C)C(=O)N[C@@H](Cc1ccccc1)C(N)=O)C(C)C — MIC (broth microdilution; K12; 37 °C): 25 µM
CC(C)C[C@H](NC(=O)[C@H](CCCNC(=N)N)NC(=O)[C@@H]1CCCN1C(=O)[C@H](Cc1c[nH]cn1)NC(=O)[C@@H]1CCCN1C(=O)[C@@H]1CCCN1C(=O)[C@H](CCCNC(=N)N)NC(=O)[C@@H]1CCCN1C(=O)[C@H](CCC(N)=O)NC(=O)[C@@H]1CCCN1C(=O)[C@H](CCCNC(=N)N)NC(=O)[C@H](Cc1ccc(O)cc1)NC(=O)[C@@H](NC(=O)[C@@H]1CCCN1C(=O)[C@H](CCCCN)NC(=O)[C@H](CC(N)=O)NC(=O)[C@H](CC(N)=O)NC(=O)CN)C(C)C)C(=O)O — MIC (JW0368 ΔsbmA; 18 h, 37 °C, 12.5% Mueller-Hinton broth): 0.096 ± 0.023 µM
CC(C)C[C@H](NC(=O)[C@H](C)NC(=O)[C@@H](N)CO)C(=O)N[C@@H](Cc1c[nH]cn1)C(=O)N[C@@H](CC(C)C)C(=O)N[C@H](C(=O)N[C@@H](CC(C)C)C(=O)N[C@@H](CCCNC(=N)N)C(=O)N[C@@H](CC(C)C)C(=O)N[C@@H](CCCNC(=N)N)C(=O)NCC(=O)NCC(=O)O)C(C)C — MIC (DH5α; 37 °C, ≥90% viability decrease): > 100 µM
CC[C@H](C)[C@H](NC(=O)[C@H](C)NC(=O)[C@H](CCCCN)NC(=O)[C@H](CC(C)C)NC(=O)[C@H](C)NC(=O)[C@@H](NC(=O)[C@H](Cc1c[nH]cn1)NC(=O)[C@H](CC(C)C)NC(=O)[C@@H](NC(=O)[C@@H](NC(=O)[C@H](CCCCN)NC(=O)[C@H](CCCCN)NC(=O)[C@H](C)NC(=O)[C@H](CO)NC(=O)[C@H](CCCCN)NC(=O)[C@H](Cc1ccccc1)NC(=O)[C@@H](NC(=O)[C@H](CCCCN)NC(=O)[C@H](CC(C)C)NC(=O)[C@H](Cc1ccccc1)NC(=O)[C@H](CO)NC(=O)[C@H](CCCCN)NC(=O)[C@H](Cc1c[nH]c2ccccc12)NC(=O)[C@H](CCCCN)NC(C)=O)[C@@H](C)O)[C@@H](C)O)C(C)C)[C@@H](C)O)C(=O)N[C@@H](CO)C(=O)N[C@@H](CO)C(N)=O — MIC (broth dilution; ATCC 25922, Mueller-Hinton broth; 24 h, 37 °C): 16 µg/mL
CC(C)C[C@H](NC(=O)[C@H](CCCNC(=N)N)NC(=O)[C@@H]1CCCN1C(=O)[C@H](CCCNC(=N)N)NC(=O)[C@@H]1CCCN1C(=O)[C@@H]1CCCN1C(=O)[C@H](CCCNC(=N)N)NC(=O)[C@@H]1CCCN1C(=O)[C@H](CCC(N)=O)NC(=O)[C@@H]1CCCN1C(=O)[C@H](CCCCN)NC(=O)[C@H](Cc1ccc(O)cc1)NC(=O)[C@@H](NC(=O)[C@@H]1CCCN1C(=O)[C@H](CCCCN)NC(=O)[C@H](CC(N)=O)NC(=O)[C@H](CC(N)=O)NC(=O)CN)C(C)C)C(=O)O — MIC (broth microdilution; BW25113 parental, Mueller-Hinton broth; 18 h, 37 °C): 0.096 ± 0.023 µM
CC[C@H](C)[C@H](NC(=O)[C@H](Cc1c[nH]c2ccccc12)NC(=O)[C@@H](N)CCCNC(=N)N)C(=O)N[C@@H](CCCNC(=N)N)C(=O)N[C@@H](Cc1c[nH]c2ccccc12)C(=O)N[C@H](C(=O)N[C@@H](Cc1c[nH]c2ccccc12)C(=O)N[C@@H](CCCNC(=N)N)C(=O)N[C@@H](CCCCN)C(=O)N[C@@H](CCCCN)C(=O)N[C@@H](CC(C)C)C(=O)N[C@@H](CCCNC(=N)N)C(N)=O)C(C)C — MIC (ATCC 25922; 1 h, 37 °C, dividing cells in LB): 50 to 100 µg/mL
CC[C@H](C)[C@H](NC(=O)[C@H](CCCNC(=N)N)NC(=O)[C@@H](N)CCCNC(=N)N)C(=O)N[C@@H](CCCNC(=N)N)C(=O)N[C@@H](CCCCN)C(=O)N[C@@H](CCCNC(=N)N)C(=O)N1CCC[C@H]1C(=O)N1CCC[C@H]1C(=O)N[C@@H](CCCNC(=N)N)C(=O)N[C@@H](CC(C)C)C(=O)N1CCC[C@H]1C(=O)N[C@@H](CCCNC(=N)N)C(=O)N1CCC[C@H]1C(=O)N[C@@H](CCCNC(=N)N)C(=O)N1CCC[C@H]1C(=O)N[C@@H](CCCCN)C(=O)O — MIC (broth microdilution; BW25113 parental, Mueller-Hinton broth; 18 h, 37 °C): 0.078 ± 0.032 µM
CC(C)C[C@H](NC(=O)[C@H](CCC(=O)O)NC(=O)[C@H](CCC(=O)O)NC(=O)[C@@H](NC(=O)[C@H](CCCNC(=N)N)NC(=O)[C@H](CCC(N)=O)NC(=O)[C@@H](N)CCCNC(=N)N)C(C)C)C(=O)N[C@@H](CO)C(=O)N[C@@H](CCCCN)C(=O)N[C@@H](Cc1ccccc1)C(=O)N[C@@H](CO)C(=O)N[C@@H](CCCCN)C(=O)N[C@@H](CCCCN)C(=O)NCC(=O)N[C@@H](C)C(=O)N[C@@H](C)C(=O)N[C@@H](C)C(=O)N[C@@H](CCCNC(=N)N)C(=O)N[C@@H](CCCNC(=N)N)C(=O)N[C@@H](CCCNC(=N)N)C(=O)N[C@@H](CCCCN)C(=O)O — MIC (broth microdilution; K12; 37 °C): > 84 µM
magainin 2 — MIC (serial dilution; ATCC 12014; 24 h, 37 °C): > 100 µg/mL

Excerpt of the above:
CC(C)C[C@H](NC(=O)[C@H](C)NC(=O)CNC(=O)[C@H](CC(C)C)NC(=O)[C@H](CC(C)C)NC(=O)[C@H](CCCCN)NC(=O)[C@H](CCCCN)NC(=O)[C@H](CC(C)C)NC(=O)[C@H](CC(C)C)NC(=O)[C@H](CCCCN)NC(=O)[C@H](CC(C)C)NC(=O)[C@H](CC(C)C)NC(=O)[C@@H](N)CCCCN)C(=O)NCC(N)=O — MIC (ATCC 25922, CAMHB; 18 h, 37 °C): 1 µM
